Experimental data pooled from the literature.
Protocols differ between the studies behind these lines. Several values in a cell are separate wells, animals, samples, runs or records.

CCN(CC)C(=O)[C@@H]1C=C2c3cccc4c3c(cn4C(=O)c3cccs3)C[C@H]2N(C)C1: “head-twitch response count” 12.8 (magnetometer; C57BL/6J mouse, male; intraperitoneal, 0.25 mg/kg, 30 min session).
The survival of Cc1cc(C(=O)Nc2nc3cccc(C)c3n2[C@H]2CCCCN(C(=O)/C=C/CN(C)C)C2)ccn1 is reported as 62.7% and 64.5% and 67% and 56.7% (Trypanosoma brucei brucei; 2T1 CLK1 overexpressing; 0.0781 µM, DMSO pretreated; relative to: maximum).
COc1ccccc1-c1n[nH]c2nc(NC3CCN(C(=O)Cc4ccc(F)cc4F)CC3)ncc12 has a relative abundance of 0.94 (bead binding, competition bead pull-down, refers to: LINJ.23.1460; Leishmania donovani extract; 10 µM; relative to: vehicle).
Cc1cc(Oc2nc(N3CC[C@@H](c4ccncc4)C3)ncc2F)[nH]n1 has a normalised growth of 0.796% and -11.4% (Mycobacterium tuberculosis; THP-1, H37Rv non-replicating; 0.00949 µM, day 4 plus 1).
COc1ccccc1-c1n[nH]c2nc(N[C@H]3CC[C@H](NS(=O)(=O)CC(C)C)CC3)ncc12 has a relative abundance of 0.93 (bead binding, competition bead pull-down, refers to: LINJ.23.1460; Leishmania donovani extract; 10 µM; relative to: vehicle).
CC(C)CC(C(=O)N1CC2(CC1C#N)C(=O)Nc1ccccc12)N(C)C(=O)c1cc2c(F)cc(F)c(F)c2[nH]1 (stereo not drawn) has an inhibition of 93.5% (Human coronavirus 229E; cytopathic effect; MRC5; 3.98 µM).
NCCCO.O=C(O)C(Cl)Cl gave an inhibition of 59% (Solanum nigrum; herbicidal activity; 15 mg/mL, 21 days, post-emergence greenhouse).
For CC(C)(C)C(=O)OCOP(=O)(OCOC(=O)C(C)(C)C)C1CCCN(O)C1=O (stereo not drawn), the log GI50 was -6.5 log M (UACC-62).
CCN(CC)C(=O)[C@@H]1C=C2c3cccc4c3c(cn4C(=O)c3ccco3)C[C@H]2N(C)C1 has an ED50 of 0.23 mg/kg (head-twitch response, magnetometer detection; mouse C57BL/6J male; intraperitoneal, 30 min session).
